Experimental data from different studies.
Each numbered part is a random draw from the data of one study; scales do not carry over between parts.

Set 1
Target: RNA binding protein fox-1 homolog 2, RRM domain, GST-SBP tag (RBFOX2, Homo sapiens, UniProt O43251-10, residues 100-194)
Technique: RNA Bind-n-Seq
Form: RNA
Medium: in vitro
Tested at: 365 nM
Setting: natural RNA segment, single round, ends assumed
Reference: no-protein control
Direction: higher = stronger binding
Measurement: RBNS enrichment (R)
Target sequence (chain): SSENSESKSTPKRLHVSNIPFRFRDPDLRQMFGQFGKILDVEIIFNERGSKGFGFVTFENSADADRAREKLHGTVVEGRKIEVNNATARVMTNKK
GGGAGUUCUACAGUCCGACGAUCAAGAACGGCCACCCGGUUUUGCCAGCGUUCAGCGUCUGCCCAUGGACCCAUAAGGCACAUUAGCGUUGGGGGUCUCUUUUCAGCAGCCUCACAGACAUUCCCGUCCUUUCUGGAAUUCUCGGGUGCCAA: 0.231
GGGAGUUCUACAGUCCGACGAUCCCACUGUCUCCCCAUCCUUCCACCUACUUGUGGCGAUCUGAGUACUCUACUCUUGCUCAAGAAGUAAUACGACAAUCAGAAUACAAACCAGUAAGGCAACACGAAUAAACUGGAAUUCUCGGGUGCCAA: 0.5
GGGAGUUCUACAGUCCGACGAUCCCUGGCCUCUGUCCACCCGUCAGCAGUGUGAAGUCUGUUGUGUUUGAGCUUCUCAGAGUGGAAUGACUCCUUUUCCUUCCUGGCCCUCGGGGGCCUCUCGAGGUCAGCCUUGGAAUUCUCGGGUGCCAA: 0.287
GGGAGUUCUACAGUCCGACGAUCCCCAAUGGGGAGCCUCCAGCCACAAGUUCCCUGUCCUUAUCAGCCACUGGGUGGUUCCCACUGCAUGACCCUCUAUCCCUGCCAUCUGUCCCCAUGGUUUCCAGCUCAAUUGGAAUUCUCGGGUGCCAA: 3.58
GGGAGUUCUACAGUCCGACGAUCCUUUCCUUUGUUUCCUUGGGUGAAUGCAGGAGCAGCAGUGGCUGCCCUUCCCACCUGGACAGUGGUGUGUGUAGAAAGCCAGCUGGAUGUUUGUGGUGGGGCCUCAUGGUUGGAAUUCUCGGGUGCCAA: 7.95
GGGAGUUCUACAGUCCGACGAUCAAAAAUGUGAUAUUCUUUGGACCACUUUUUUAAUUUAUAUAAGCCUUAAUGAACAGUGUCUAUACAUUUGCAUACACACACCCCCACCCCAGAGUGUUCUCAGUAUGUCAUGGAAUUCUCGGGUGCCAA: 0.582
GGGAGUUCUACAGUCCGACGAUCUGGACUCUAUACAGUGAGGGCCACUCACCGACCUGAGUCAGUGUCCUCUGUCUCACAGGGCCCCUCUCCCUUCUGUUCAGUAAACAAACUGAAGCCAAAAAUGAAGCCGUUGGAAUUCUCGGGUGCCAA: 0.25
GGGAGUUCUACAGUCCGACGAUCCACUGUUAGGCUUGGGCAUUAGCCUGGCCCAAGAGAUGCCACUGGGGACUAGAGGACAGAAGGGGACGUUCCCUUCACCUGGGAAUUCUCACCCUGGUGUCAACAUGCUGUGGAAUUCUCGGGUGCCAA: 0.279
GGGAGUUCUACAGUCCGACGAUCUGUUUAUAUUAAAACAGACUAUUAUAAAGCUUUAAGUUGUCAACUUUGUUCUGAAUAUCAACUAGAGCAAGCAAAUACUGGAGAUUUCUUAGUCAGUUUUUAGGGGACCUUGGAAUUCUCGGGUGCCAA: 0.389
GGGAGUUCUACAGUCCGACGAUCUUCUUUCCUUUCCCUUCUCACCUCUUUGCCUCCUUCCCUAAAAUUCGCUGUGGCCCUCGGGGUCAGACUGUUCAUUCUCCAGCAUGAUUGUGCCUUUUAAUUAGAGGUCUUGGAAUUCUCGGGUGCCAA: 20.4
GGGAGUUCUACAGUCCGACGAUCCCACAUCUACCGGUACUUGCCUAAACCCUGACUGUGCCAUCCCAAAGGCCUUGAUGUGAAUUUUCUUUGGUACAAAUAGGAAUGGCCCACUGAGGCAGAGGAGUAAGAGUUGGAAUUCUCGGGUGCCAA: 0.433
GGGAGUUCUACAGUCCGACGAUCUAGUGAGGAAGUGAGAGCAGAGGCUGGAAACUCAAUCCCAAGGGGAGAUCUGCCUUCCUACCCUCGGGAAGGGUCACCUAGAGGCUUCUCAGCCCCACCCUCACCCUCUGUGGAAUUCUCGGGUGCCAA: 0.319

Set 2
Target: Prothrombin, mature alpha-thrombin (F2, Homo sapiens, UniProt P00734)
Technique: aptamer microarray, sandwich
Form: DNA with 2'F-ANA
Medium: in vitro
Tested at: 200 nM
Setting: whole 15-mer aptamer, many near background
With: Cy3 exosite-II aptamer, 400 nM
Direction: higher = stronger binding
Measurement: mean fluorescence intensity
Strand: GGTTGGTGTGGTTGG
2'F-ANA at 1 5 6 7 8 9 13 15: 49.5 a.u.
2'F-ANA at 1 5 10 11 13 14: 48.3 a.u.
2'F-ANA at 2 5 6 8 9 13 14: 46.4 a.u.
2'F-ANA at 2 3 6 11 12 13: 772 a.u.
2'F-ANA at 1 2 4 5 6 7 8 9 11 12 15: 87 a.u.
2'F-ANA at 2 3 5 6 7 10 12 13 15: 86.5 a.u.
2'F-ANA at 1 3 5 6 8 9 10 11 12 13 15: 72.9 a.u.
2'F-ANA at 1 3 4 5 6 7 8 9 11 13 14: 53.4 a.u.
2'F-ANA at 1 3 5 8 9 10 11 12 14 15: 54.2 a.u.
2'F-ANA at 1 2 4 8 11 15: 133 a.u.
2'F-ANA at 1 3 4 5 6 10 11 12 14: 65.2 a.u.
2'F-ANA at 1 2 3 5 6 7 8 9 10 11 13 14: 48.6 a.u.
2'F-ANA at 2 3 6 7 8 11: 743 a.u.
2'F-ANA at 1 2 5 8 11 12 14 15: 45.6 a.u.
2'F-ANA at 1 2 7 9 11 13 14: 52.4 a.u.
2'F-ANA at 2 3 5 7 9 10 11 12 14 15: 51.4 a.u.
2'F-ANA at 1 4 9 10 12 13 14 15: 46.6 a.u.

Set 3
Target: PABPC1L2, full length, GST fusion (mouse, UniProt A0ABA7IW68)
Technique: RNAcompete
Form: RNA
Medium: in vitro
Tested at: 20 nM
Setting: 7-mer, probes averaged, single round
Reference: mean of 7-mers
Direction: higher = stronger binding
Measurement: 7-mer Z-score
Construct (chain): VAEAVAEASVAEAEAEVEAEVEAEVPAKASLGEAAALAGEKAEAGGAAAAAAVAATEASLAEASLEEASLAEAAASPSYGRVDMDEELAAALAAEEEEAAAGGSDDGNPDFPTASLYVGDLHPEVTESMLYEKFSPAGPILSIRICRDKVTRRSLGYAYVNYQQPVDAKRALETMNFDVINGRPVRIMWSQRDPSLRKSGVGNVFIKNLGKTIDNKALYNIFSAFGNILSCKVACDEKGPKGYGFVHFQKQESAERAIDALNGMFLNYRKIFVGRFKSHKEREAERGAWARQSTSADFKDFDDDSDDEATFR
CUUCAAA: 0.224
AAUAUCA: 0.265
GCACUGC: -0.191
CUCCGGU: -0.202
UGCCACA: 0.0243
UAGCGGC: -0.0409
AGUAAAA: 3.18
AAAUCAC: 0.856
AUUGUUU: -0.407
AGGUACC: -0.278
ACUUAGG: -0.0409
UGAAUGC: -0.295
GCCUAUA: -0.133
CGCGGUG: 0.133
UACCCCG: -0.374
UUCCACU: -0.231
GGCAGGU: 0.158
AACUUUU: -0.101
GUUACAC: -0.264
GACCAAC: -0.0536
CUCAGCG: -0.26
UAUUGAU: -0.273
AAGGGAG: 0.441
GCGUCCC: -0.244

Set 4
Target: Histone acetyltransferase KAT6A, winged helix 1, GST fusion (KAT6A, Homo sapiens, UniProt Q92794, residues 1-85)
Technique: protein binding microarray
Form: double-stranded DNA, one strand shown
Medium: in vitro
Tested at: not given
Setting: 8-mer, flanks averaged, mean of 2 arrays, mostly near background
Reference: not given
Direction: higher = stronger binding
Measurement: E-score
Construct (chain): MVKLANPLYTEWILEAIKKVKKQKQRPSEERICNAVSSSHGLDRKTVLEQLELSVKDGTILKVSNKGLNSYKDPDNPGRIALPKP
CACCCCTC: -0.13
AATGTCAT: -0.0408
ATGCTAAC: 0.00964
CGCAACAA: -0.0197
CAATGTCC: -0.0375
TCTCGGAA: -0.0541
AGCGCAGA: 0.209
CGAGCTCG: -0.141
CTCACCCA: -0.208
CAACGCTG: 0.0628
CAAATTCC: -0.178
CGATGGCG: 0.277
CCGGACGA: -0.0246
ACTTTCTG: -0.121
GCATCCCC: 0.0908
GGATACCC: 0.0866
AGTTGGAC: -0.039
ATAATTTG: -0.0582
AATCATAT: 0.0276
TATGACGA: -0.0246
GTTCAACA: -0.014
ACAACTAT: -0.0878
AAATCTTG: -0.147
TAAGTGAA: -0.219

Set 5
Target: Interferon regulatory factor 5, full length, phosphomimetic (IRF5, Homo sapiens, UniProt Q13568-2, residues 1-514, K96S/S451D/S453D/S456D/S462D)
Technique: protein-binding microarray
Form: double-stranded DNA, one strand shown
Medium: in vitro
Tested at: 250 nM
Setting: 60-bp whole probe
With: salmon DNA 0.4 mg/ml
Reference: random background probes
Direction: higher = stronger binding
Measurement: log fluorescence
All sequences stand within: GCCTAGCAC … GTCTTGATTCGCTTGACGCTGCTG
GACGATTTCATACTGGAGACGTGCTAG: 0.692 z-score
TCATAATTCACTATTACACTGTGCTAG: 1.02 z-score
TTAGGTTTCGGGACTGGGTTAGTGCTA: 5.95 z-score
GACGAACAGGGGACTGGAGACGTGCTA: -0.541 z-score
GACGAACTGAGTTGCGAGACGTGCTAG: -0.241 z-score
GACGGTATCGGCTTCGGGACGTGCTAG: 1.99 z-score
TCACTTTCCACTTGTCTTACTGTGCTA: 2.3 z-score
TTAGGACTGGGAACTGGGTTAGTGCTA: -0.295 z-score
GACGTTATCGGGTATCGGGACGTGCTA: 3.45 z-score
CACACTTTCCCCTTCCTAGTGTGCTAG: 1.98 z-score
GACGGTTTCGTGACTGGGGACGTGCTA: 1.62 z-score
TTCCATTTCTGTTTTTGCTTGTGCTAG: 3.78 z-score
TTAGGTTTCTGTTCCGGTTAGTGCTAG: 5.94 z-score
TTAGCTATCAGACTGGATTAGTGCTAG: 0.389 z-score
TTAGATTTCGGGGATCGATTAGTGCTA: 2.8 z-score
TCACCTTCTACTCTCCTACTGTGCTAG: 0.465 z-score
AAAAATTAGTGTTTCCCCTAGTGCTAG: 0.755 z-score
GACGGTATCGGTACCGGGACGTGCTAG: 4.89 z-score
TTAGGTTTCGGGTTACGGTTAGTGCTA: 8.77 z-score
CGCCCTCTCAACCATCCTGGGGTGCTA: -0.393 z-score
TTAGGTTTCGACACTGGTTTAGTGCTA: 6.26 z-score
TTCGAACTGGGGTATCGATTAGTGCTA: 2.45 z-score
TTAGGTGTCGGTCTCGGTTAGTGCTAG: 0.386 z-score

Excerpt of the above (set 4):
CCGGACGA: -0.0246
CACCCCTC: -0.13
CAAATTCC: -0.178
CTCACCCA: -0.208
CGCAACAA: -0.0197
CAACGCTG: 0.0628
CGAGCTCG: -0.141
TCTCGGAA: -0.0541
TATGACGA: -0.0246
AGCGCAGA: 0.209
CGATGGCG: 0.277
